Measured values collected from several papers.
Each numbered part is a random draw from the data of one study; scales do not carry over between parts.

Study 1 — technique: aptamer microarray, sandwich; molecule type: DNA with 2'F-ANA; sample: in vitro; concentration: 200 nM; together with: Cy3 exosite-II aptamer, 400 nM; direction: higher = stronger binding; strand: GGTTGGTGTGGTTGG
Target: Prothrombin, mature alpha-thrombin (F2, Homo sapiens, UniProt P00734)
Notes: whole 15-mer aptamer, many near background
Under “mean fluorescence intensity”, `2'F-ANA at 3 5 6 7 11 15` is recorded as 83.8 a.u.
For `2'F-ANA at 1 4 6 7 8 11 12 14`, “mean fluorescence intensity” read 59.3 a.u.
For `2'F-ANA at 2 3 4 6 7 9 10 12 13 14`, “mean fluorescence intensity” read 158 a.u.
`2'F-ANA at 4 6 8 12 13` — result for “mean fluorescence intensity”: 429 a.u.
Under “mean fluorescence intensity”, `2'F-ANA at 1 2 6 7 9 13 15` is recorded as 117 a.u.
For `2'F-ANA at 3 7 10 11 12 14 15`, “mean fluorescence intensity” read 386 a.u.
`2'F-ANA at 1 6 10 14 15` — result for “mean fluorescence intensity”: 44.9 a.u.
`2'F-ANA at 1 2 3 5 6 7 8 11 12 15` — result for “mean fluorescence intensity”: 98.5 a.u.

Study 2 — technique: protein-binding microarray; molecule type: double-stranded DNA, one strand shown; sample: in vitro; concentration: 2200 nM top; notes: 60-bp whole probe; together with: salmon DNA 0.4 mg/ml; baseline: random background probes; direction: higher = stronger binding; all sequences stand within: GCCTAGCAC … GTCTTGATTCGCTTGACGCTGCTG
Target: Interferon regulatory factor 7, full length, phosphomimetic (IRF7, Homo sapiens, UniProt Q92985, residues 1-503, S471D/S472D/S475D/S476D/S477D/S483D/S484D/S487D)
Target sequence (chain): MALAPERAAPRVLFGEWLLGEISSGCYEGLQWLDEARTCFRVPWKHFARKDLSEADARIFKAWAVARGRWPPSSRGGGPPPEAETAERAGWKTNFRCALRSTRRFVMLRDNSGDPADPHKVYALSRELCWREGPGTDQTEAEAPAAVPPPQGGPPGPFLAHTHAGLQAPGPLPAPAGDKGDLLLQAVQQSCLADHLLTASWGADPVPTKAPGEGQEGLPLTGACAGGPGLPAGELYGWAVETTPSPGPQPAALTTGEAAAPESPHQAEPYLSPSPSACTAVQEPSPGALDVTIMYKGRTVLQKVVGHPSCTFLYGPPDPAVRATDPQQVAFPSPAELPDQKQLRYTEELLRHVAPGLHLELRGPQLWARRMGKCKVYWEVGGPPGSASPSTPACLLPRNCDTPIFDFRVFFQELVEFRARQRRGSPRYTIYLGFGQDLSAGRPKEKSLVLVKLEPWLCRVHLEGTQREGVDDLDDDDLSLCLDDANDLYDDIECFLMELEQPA
`TCATCATTTTCTCTGTTACTGTGCTAG` — result for “fitted relative affinity”: 2.37 z-score.
`CAGGCAGGAGAAGTGAATGAGTGCTAG`: “fitted relative affinity” -1.23 z-score.
For `TTAGGTTGCCTTTTCCTTTAGTGCTAG`, “fitted relative affinity” read 1.7 z-score.
For `TTAGGTATCAACTATCGGTTAGTGCTA`, “fitted relative affinity” read 0.247 z-score.
Under “fitted relative affinity”, `GACGGTCTCGGGTATCGGGACGTGCTA` is recorded as -0.349 z-score.
For `TCAATTTTGTTCATCATACTGTGCTAG`, “fitted relative affinity” read 0.964 z-score.
`GACGGTATCGGACTGGGGAGGTGCTAG` — result for “fitted relative affinity”: -0.15 z-score.
For `TTACGACTGGGACTGGGTTAGTGCTAG`, “fitted relative affinity” read 0.0492 z-score.

Study 3 — technique: RNA Bind-n-Seq; molecule type: RNA; sample: in vitro; concentration: not given; baseline: input RNA pool; direction: higher = stronger binding
Target: RING finger protein unkempt homolog, zinc fingers 1-6, GST-SBP tag (UNK, Homo sapiens, UniProt Q9C0B0, residues 30-357)
Chain of UniProt Q9C0B0 (30-357, looked up): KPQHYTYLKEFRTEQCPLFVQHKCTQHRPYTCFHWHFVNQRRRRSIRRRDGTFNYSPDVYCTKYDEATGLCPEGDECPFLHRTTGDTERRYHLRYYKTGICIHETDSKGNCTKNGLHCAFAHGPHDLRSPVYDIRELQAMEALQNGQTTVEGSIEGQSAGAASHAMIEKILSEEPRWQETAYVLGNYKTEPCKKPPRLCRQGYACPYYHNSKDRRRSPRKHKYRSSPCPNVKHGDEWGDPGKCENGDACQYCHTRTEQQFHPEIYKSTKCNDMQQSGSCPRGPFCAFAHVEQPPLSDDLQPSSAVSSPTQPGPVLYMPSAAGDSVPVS
Notes: RNA with constant flanks, human and mouse sites, ends assumed
All sequences stand within: GGGAGUUCUACAGUCCGACGAUC … CAACAGAGGAUUGAGCAUCA
With `ACAACACACCUUCCUGAUGGAGGUGCCCGGCUGUUGGAGAAGUCUGGGGGCUUGGAAAUCAUCUUUGAUGUUUACCAGGCCGACGCUGUGGCCACAUUCCGAAAGAAUAACCCUGGCAAA` the bound/input enrichment was 0.116 ratio.
For `ACGAUCGGGGCCUAUAUCAACACAACGCACUCACGCCUCACACACAUCAGUCCUCGGCACUAUAGCGAGUUUAUCGAGUUCCUCAGCAAGGCCCGAGAGACCUUCCUAAUGGCACACGAU`, the bound/input enrichment was 0.242 ratio.
The bound/input enrichment of `UCUUCAACCUGAUCAAGAGGCCAGAUGAUGAGCAAAGGCAAAUGAUACUGACAGGAUGUGUGGCAUUUGCACGUCAUGUUGGACCAACACGUGUGGAGGCUGAACUUUUACCUCAGUGUU` is reported as 0.0895 ratio.
For `AAACUUACACUGGUUUGACAGUGGUCAGUUACAUGUCCCCACAGUUCCAAUGUGCCUGUUCACUCACCUCUCCCUUCCCCAACCCUUCUCUACUUGGCUGCUGUUUUAAAGUUUGCCCUU`, the bound/input enrichment was 0.326 ratio.
`AUAUCUACAUGCUGUCAGUGAGGCUCCAGGAGGCUUUCCUAACCCUGGGAAGUUAUUUGGGCAUAGCGCUCUAUGUUUAAUAAAGGUUUUUUAAUAGAUGUUUUAUUCAGUACAUCUUCC` has a bound/input enrichment of 1.28 ratio.
`UGGAUCUCCCCCGAGACCACCGCCCGGCCCCACCUGGCUGUCAUCGGGCUGGAUGCCUACCUGUGGUACCGCUCACUCUCAUGCCCACAGCAGGGCUGGCUGGGACGGGGGUUCAGGGGA` has a bound/input enrichment of 0.12 ratio.

Further values, each from its own experiment
`PhoQ, residues 284 288 289 292 302 303 TSTLRA` gave a fold induction of 13.3 (PhoP, residues 12 14 15 18 19 TQALL (Escherichia coli, UniProt P23836); Sort-seq, item: YFP reporter; E. coli; PhoQ-PhoP variant library, together with: 10 µM Mg2+; baseline: high Mg2+ state, higher = stronger signaling).
